Assay results of several laboratories.
Parts stem from different laboratories: compare values within a part only. Several values in a cell are separate wells, animals, samples, runs or records.
Chain of UniProt Q8IY84 (whole entry, looked up): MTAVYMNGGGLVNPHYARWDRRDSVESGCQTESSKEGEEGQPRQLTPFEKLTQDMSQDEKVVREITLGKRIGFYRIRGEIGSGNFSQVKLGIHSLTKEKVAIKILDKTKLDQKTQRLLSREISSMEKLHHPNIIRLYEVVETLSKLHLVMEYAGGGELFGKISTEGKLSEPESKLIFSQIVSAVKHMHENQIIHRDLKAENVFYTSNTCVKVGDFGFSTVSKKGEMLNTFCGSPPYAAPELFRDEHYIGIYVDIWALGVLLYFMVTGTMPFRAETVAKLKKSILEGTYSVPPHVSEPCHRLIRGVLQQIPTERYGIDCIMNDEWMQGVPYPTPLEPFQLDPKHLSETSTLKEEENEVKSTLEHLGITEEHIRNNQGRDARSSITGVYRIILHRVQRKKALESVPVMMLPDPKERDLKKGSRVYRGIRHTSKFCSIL
Chain of UniProt O43283 (whole entry, looked up): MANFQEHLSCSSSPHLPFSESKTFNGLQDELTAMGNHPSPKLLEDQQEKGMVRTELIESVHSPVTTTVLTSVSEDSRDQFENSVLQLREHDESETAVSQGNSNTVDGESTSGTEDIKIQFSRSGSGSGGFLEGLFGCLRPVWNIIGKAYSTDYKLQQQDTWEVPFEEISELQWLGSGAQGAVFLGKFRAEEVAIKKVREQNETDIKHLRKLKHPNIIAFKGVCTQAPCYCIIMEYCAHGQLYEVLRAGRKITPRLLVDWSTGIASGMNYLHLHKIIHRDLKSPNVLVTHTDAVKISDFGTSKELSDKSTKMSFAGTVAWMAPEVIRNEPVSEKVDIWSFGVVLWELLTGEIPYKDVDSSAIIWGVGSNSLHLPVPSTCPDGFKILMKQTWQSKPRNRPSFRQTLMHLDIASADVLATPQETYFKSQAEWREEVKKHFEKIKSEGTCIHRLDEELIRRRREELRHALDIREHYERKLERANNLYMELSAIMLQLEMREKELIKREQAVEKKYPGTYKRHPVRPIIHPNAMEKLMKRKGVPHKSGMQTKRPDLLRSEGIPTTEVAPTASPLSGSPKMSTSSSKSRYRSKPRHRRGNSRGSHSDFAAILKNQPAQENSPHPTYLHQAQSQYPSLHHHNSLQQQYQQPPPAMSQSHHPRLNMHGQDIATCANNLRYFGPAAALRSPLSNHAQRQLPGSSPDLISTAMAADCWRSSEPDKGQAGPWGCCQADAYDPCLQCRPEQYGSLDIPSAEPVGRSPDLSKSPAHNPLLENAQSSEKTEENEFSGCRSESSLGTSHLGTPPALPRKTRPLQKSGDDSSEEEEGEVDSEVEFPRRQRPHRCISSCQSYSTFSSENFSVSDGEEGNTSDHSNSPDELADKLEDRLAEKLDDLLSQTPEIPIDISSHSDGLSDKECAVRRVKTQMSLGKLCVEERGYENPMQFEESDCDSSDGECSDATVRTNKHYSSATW
Chain of UniProt P42336 (whole entry, looked up): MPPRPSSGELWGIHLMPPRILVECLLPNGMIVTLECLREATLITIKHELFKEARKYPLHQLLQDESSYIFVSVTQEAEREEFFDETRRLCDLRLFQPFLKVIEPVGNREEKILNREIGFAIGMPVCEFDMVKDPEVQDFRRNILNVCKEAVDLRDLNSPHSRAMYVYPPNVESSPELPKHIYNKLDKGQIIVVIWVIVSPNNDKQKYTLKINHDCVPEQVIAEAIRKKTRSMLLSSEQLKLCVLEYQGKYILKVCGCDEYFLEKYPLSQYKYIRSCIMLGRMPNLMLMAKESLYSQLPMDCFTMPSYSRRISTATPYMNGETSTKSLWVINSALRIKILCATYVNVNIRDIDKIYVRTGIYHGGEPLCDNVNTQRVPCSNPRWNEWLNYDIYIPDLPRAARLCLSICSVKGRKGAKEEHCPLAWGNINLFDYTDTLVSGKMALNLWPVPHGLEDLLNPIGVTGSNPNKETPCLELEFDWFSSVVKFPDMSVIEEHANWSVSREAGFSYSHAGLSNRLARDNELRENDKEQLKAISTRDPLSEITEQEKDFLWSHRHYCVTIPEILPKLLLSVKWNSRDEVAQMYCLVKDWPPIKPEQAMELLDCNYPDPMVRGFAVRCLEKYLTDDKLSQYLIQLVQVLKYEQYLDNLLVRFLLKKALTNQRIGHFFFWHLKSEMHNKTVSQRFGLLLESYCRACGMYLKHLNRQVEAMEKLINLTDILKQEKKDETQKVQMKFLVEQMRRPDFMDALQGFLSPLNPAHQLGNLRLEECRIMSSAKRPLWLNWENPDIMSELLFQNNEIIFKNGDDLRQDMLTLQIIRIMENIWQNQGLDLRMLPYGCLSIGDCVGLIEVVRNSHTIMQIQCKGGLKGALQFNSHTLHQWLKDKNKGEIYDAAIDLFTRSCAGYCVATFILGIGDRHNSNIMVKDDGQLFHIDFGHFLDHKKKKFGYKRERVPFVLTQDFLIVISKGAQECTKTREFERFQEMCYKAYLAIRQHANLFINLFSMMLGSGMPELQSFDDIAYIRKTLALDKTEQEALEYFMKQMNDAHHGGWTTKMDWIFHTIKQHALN
Chain of UniProt Q6PHR2 (whole entry, looked up): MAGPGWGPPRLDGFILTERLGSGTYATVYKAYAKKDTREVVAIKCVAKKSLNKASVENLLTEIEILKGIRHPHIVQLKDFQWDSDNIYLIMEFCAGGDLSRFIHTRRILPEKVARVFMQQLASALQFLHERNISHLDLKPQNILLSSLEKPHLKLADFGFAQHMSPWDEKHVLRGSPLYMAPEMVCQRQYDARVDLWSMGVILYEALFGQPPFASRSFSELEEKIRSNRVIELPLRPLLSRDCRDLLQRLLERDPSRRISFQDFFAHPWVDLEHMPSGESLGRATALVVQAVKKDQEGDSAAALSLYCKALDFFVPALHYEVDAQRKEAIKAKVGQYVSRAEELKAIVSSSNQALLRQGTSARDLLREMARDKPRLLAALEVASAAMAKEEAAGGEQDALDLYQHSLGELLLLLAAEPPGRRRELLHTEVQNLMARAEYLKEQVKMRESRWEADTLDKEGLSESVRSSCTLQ
Chain of UniProt P23458 (whole entry, looked up): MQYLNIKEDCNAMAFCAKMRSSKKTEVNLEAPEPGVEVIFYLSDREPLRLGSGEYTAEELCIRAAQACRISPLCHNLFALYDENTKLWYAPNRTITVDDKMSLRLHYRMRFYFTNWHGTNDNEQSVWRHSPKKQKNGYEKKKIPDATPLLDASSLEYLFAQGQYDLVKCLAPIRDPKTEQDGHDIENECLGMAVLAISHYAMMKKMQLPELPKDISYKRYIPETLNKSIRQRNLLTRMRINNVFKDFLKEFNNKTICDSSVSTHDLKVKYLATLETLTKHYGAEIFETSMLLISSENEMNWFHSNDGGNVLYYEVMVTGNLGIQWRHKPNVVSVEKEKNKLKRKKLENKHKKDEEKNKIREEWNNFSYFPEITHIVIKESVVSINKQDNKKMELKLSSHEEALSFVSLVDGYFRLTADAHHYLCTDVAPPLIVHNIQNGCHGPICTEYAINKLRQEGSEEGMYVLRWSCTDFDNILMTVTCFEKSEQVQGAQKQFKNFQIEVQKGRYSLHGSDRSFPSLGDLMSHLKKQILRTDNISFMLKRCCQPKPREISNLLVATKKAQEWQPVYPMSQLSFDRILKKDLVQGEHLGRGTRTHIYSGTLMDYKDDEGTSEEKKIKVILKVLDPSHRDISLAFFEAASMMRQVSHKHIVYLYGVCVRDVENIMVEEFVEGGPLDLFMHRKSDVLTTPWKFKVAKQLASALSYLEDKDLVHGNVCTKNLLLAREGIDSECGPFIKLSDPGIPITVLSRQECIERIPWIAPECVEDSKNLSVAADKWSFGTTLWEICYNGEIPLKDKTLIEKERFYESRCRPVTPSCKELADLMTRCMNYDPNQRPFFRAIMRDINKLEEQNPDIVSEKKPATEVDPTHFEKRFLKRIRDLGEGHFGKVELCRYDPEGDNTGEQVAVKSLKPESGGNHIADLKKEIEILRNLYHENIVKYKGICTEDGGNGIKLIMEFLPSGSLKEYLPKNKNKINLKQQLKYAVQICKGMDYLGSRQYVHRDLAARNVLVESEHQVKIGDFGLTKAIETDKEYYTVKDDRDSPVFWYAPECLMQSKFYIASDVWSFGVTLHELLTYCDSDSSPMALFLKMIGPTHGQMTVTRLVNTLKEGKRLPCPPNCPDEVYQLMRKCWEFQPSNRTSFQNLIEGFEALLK

Study 1 — read-out: cell-free assay; technique: competition with immobilised ligand; tested at: 1 µM; endpoint: remaining binding
Structure (SMILES): O=C1NC(c2ccccn2)Sc2ccccc21 (centres unmarked)
Non-receptor tyrosine-protein kinase TYK2, JH2 (TYK2, Homo sapiens, UniProt P29597): 86%
COQ8B (Homo sapiens, UniProt Q96D53): 67%
PIM3 (Homo sapiens, UniProt Q86V86): 100%
MAPK15 (Homo sapiens, UniProt Q8TD08): 100%
TSSK3 (Homo sapiens, UniProt Q96PN8): 88%
MAP3K13 (Homo sapiens, UniProt O43283): 100%
PHKG1 (Homo sapiens, UniProt Q16816): 76%
CSK (Homo sapiens, UniProt P41240): 100%
NIM1K (Homo sapiens, UniProt Q8IY84): 100%
Tyrosine-protein kinase ABL1, phosphorylated (ABL1, Homo sapiens, UniProt P00519, T315I): 93%
MARK2 (Homo sapiens, UniProt Q7KZI7): 92%
PAK6 (Homo sapiens, UniProt Q9NQU5): 100%
Ribosomal protein S6 kinase alpha-5, N-terminal kinase domain (RPS6KA5, Homo sapiens, UniProt O75582): 95%
MAPK7 (Homo sapiens, UniProt Q13164): 96%
ULK3 (Homo sapiens, UniProt Q6PHR2): 100%
FYN (Homo sapiens, UniProt P06241): 100%
Tyrosine-protein kinase JAK1, JH1 (JAK1, Homo sapiens, UniProt P23458): 68%
PIK3CA (Homo sapiens, UniProt P42336): 91%
Tyrosine-protein kinase ABL1, phosphorylated (ABL1, Homo sapiens, UniProt P00519, F317L): 100%
EPHA3 (Homo sapiens, UniProt P29320): 100%
PIK3CG (Homo sapiens, UniProt P48736): 91%
STK25 (Homo sapiens, UniProt O00506): 78%
CDK16 (Homo sapiens, UniProt Q00536): 100%
MAP4K4 (Homo sapiens, UniProt O95819): 100%
NTRK1 (Homo sapiens, UniProt P04629): 100%

Study 2 — host: human; medium: microsomes or S9; tested at: 2 µM; time: 0.5 h; endpoint: remaining compound
O=C(COc1ccc2c3ccccc3n(C(=O)c3ccc(Br)cc3)c2c1)N1CCOCC1: 68.5%
Cn1ncc2cc(NC(=O)N3C[C@H]4CC=CC[C@H]4C3)ccc21: 95.6%
O=C1c2ccccc2C2CC(c3ccc(-c4ccccc4)cc3)=NN12 (centres unmarked): 34.8%
Brc1ccc2ccnc(N3CCCC3)c2c1: 1.09%
Cc1nc(C2CC2)nc2sc(C(=O)NC3(C#N)CCCC3)c(N)c12: 33.7%
NCCN(C1CCOCC1)S(=O)(=O)c1ccc(C2CCCCC2)cc1: 89.2%
CC(C)COc1cc(=O)n2c(c1C(=O)NC1CCCCC1)CCCCC2: 17.1%
Cn1nc2n(c1=O)CCN(C(=O)CCn1cnnn1)CC2: 72.6%
CC1(C)OC(=O)C2(Cc3ccccc3N3CCC(c4ccccc4)CC32)C(=O)O1 (centres unmarked): 0.417%
CC(=O)c1cccc(NC(=O)c2ccc(C(C)(C)C)cc2)c1: 27.4%
COc1ccc(NC(=O)c2cc3cc(C)ccc3n2C)c(OC)c1: 67.6%
CC1c2cc3c(cc2C2(CCCC2)CN1C(=O)c1ccncn1)OCCO3 (centres unmarked): 1.4%
COCCCNC1=NCCNC12CCN(S(=O)(=O)c1ccc(F)cc1)CC2: 88%
Cc1ccc(S(=O)(=O)N2CCCC(C(=O)Nc3ccc4[nH]c(C5CCCO5)nc4c3)C2)s1 (centres unmarked): 80.2%
CCc1cccc(C)c1/N=C1/N=C(N2CCOCC2)N(c2ccc(C)cc2)C12CCCCC2: 89.4%

Study 3 — Structure (SMILES): C=CCc1ccc(O)c(-c2ccc(O)c(CC=C)c2)c1; read-out: chloride current; technique: whole-cell patch clamp; endpoint: normalised current
Target: Anoctamin-1 (ANO1, Homo sapiens, UniProt Q5XXA6, del476-501)
Chain of UniProt Q5XXA6 (whole entry, unmodified, looked up): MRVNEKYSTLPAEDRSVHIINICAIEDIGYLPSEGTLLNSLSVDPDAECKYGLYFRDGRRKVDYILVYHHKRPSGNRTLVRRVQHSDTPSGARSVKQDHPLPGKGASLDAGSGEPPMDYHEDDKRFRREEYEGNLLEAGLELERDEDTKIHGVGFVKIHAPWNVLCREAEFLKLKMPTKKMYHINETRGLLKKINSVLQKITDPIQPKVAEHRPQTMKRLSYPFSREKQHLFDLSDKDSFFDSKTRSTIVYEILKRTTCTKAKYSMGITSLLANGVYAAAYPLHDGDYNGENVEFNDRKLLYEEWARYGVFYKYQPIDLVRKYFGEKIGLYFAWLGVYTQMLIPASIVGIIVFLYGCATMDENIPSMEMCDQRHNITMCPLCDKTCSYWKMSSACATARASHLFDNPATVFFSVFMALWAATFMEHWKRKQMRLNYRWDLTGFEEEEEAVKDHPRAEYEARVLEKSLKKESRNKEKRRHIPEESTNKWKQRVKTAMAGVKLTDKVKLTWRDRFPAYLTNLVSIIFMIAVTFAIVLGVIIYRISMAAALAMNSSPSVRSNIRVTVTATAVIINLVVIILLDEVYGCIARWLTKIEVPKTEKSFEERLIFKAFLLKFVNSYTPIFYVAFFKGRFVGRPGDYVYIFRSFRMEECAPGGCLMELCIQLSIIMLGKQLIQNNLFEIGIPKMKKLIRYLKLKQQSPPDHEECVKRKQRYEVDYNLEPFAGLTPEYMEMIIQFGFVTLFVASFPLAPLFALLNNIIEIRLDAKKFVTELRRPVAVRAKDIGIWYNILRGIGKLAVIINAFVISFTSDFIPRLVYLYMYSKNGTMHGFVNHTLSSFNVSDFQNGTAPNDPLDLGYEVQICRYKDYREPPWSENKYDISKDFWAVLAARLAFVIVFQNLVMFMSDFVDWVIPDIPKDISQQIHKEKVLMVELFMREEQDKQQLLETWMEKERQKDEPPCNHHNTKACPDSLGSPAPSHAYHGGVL
30 µM, -20 mV, 300 nM free Ca2+, added: honokiol and magnolol 10 µM: -0.0025
10 µM, 80 mV, 300 nM free Ca2+: 0.217 and 0.228
1 µM, 80 mV, 300 nM free Ca2+, added: honokiol and magnolol 10 µM: 0.451
1 µM, 60 mV, 300 nM free Ca2+, added: honokiol and magnolol 10 µM: 0.277

Study 4 — read-out: enzyme activity; mode: inhibitor; tested at: 0.5 µM; relative to: control; endpoint: remaining activity
Target: Tyrosine-protein kinase SYK (SYK, Homo sapiens, UniProt P43405)
COc1ccc2c(c1)c(C1=C(c3c[nH]c4ccccc34)C(=O)NC1=O)cn2CCCN(C)C: 68.5%
O=C1Nc2ccc(Br)cc2/C1=C/c1cc2c([nH]1)CCCC2: 90.5%
O=C1NC(=O)c2c1c1c3ccccc3[nH]c1n1cncc21: 84.9%
Cc1cc(Nc2cc(N3CCN(C)CC3)nc(Sc3ccc(NC(=O)C4CC4)cc3)n2)[nH]n1: 99.2%
Cc1ccc(S(=O)(=O)/C=C/C#N)cc1: 105%
CN1CCN(c2ccc3nc(-c4c(N)c5c(F)cccc5[nH]c4=O)[nH]c3c2)CC1: 65.4%
O=C(c1cc2cc(O)ccc2[nH]1)c1cc2cc(O)ccc2[nH]1: 72%
O=C1Cc2c([nH]c3ccc(Br)cc23)-c2ccccc2N1: 81.5%
O=C1Nc2ccccc2/C1=C\c1c(Cl)[nH]c2ccccc12: 102%

Repeated from above (study 1):
PIM3 (Homo sapiens, UniProt Q86V86): 100%
MAPK15 (Homo sapiens, UniProt Q8TD08): 100%
TSSK3 (Homo sapiens, UniProt Q96PN8): 88%
MAP3K13 (Homo sapiens, UniProt O43283): 100%
PHKG1 (Homo sapiens, UniProt Q16816): 76%
